Assay results of several laboratories.
Sample: plasma

The Vd/F of `Cc1cc(O)cc(O)c1C(=O)c1c2c3c(c(O)cc(C)c3oc1=O)C(=O)c1c(O)cc(O)cc1-2` is reported as 0.41 L/kg (male Kunming mouse; intraperitoneal, 30 mg/kg).
For `COC1C=COC2(C)Oc3c(C)c(O)c4c(c3C2=O)C2=NC3(CCN(CC(C)C)CC3)NC2=C(NC(=O)C(C)=CC=CC(C)C(O)C(C)C(O)C(C)C(OC(=O)c2cncnc2)C1C)C4=O` (stereo not shown), the Vd was 2.4 L/kg (female CD-1 mouse; intravenous, 5 mg/kg).
`CCOc1c(C(C)(C)O)sc2cnc(Nc3ccc(N4CCC(N5CC6(COC6)C5)CC4)cc3OC)nc12` gave a Vd of 8.63 L/kg (male C57BL/6 mouse; intravenous, 3 mg/kg).
`COC(=O)c1ccc2c(c1)NC(=O)/C2=C(\Nc1ccc2c(c1)CCN2C(=O)CN1CCOCC1)c1ccccc1` has a Vd of 1.51 L/kg (CD-1 mouse; intravenous, 10 mg/kg).
For `COC1C=COC2(C)Oc3c(C)c(O)c4c(c3C2=O)C2=NC3(CCN(CC(C)C)CC3)NC2=C(NC(=O)C(C)=CC=CC(C)C(O)C(C)C(O)C(C)C(OC(=O)Nc2cscn2)C1C)C4=O` (stereo not shown), the Vd was 1.5 L/kg (female CD-1 mouse; intravenous, 5 mg/kg).
For `Nc1ccn(C[C@@H](CO)OCP(=O)(O)OCCCS(=O)(=O)CCCCCCCCCCCCC2CCC2)c(=O)n1`, the Vd was 4.2 L/kg (mouse; intravenous, 3 mg/kg, single dose).
The Vd/F of `O=C1OC2(c3ccccc31)c1cc(I)c(O)c(I)c1Oc1c2cc(I)c(O)c1I` is reported as 504 L/kg (female C57BL/6 mouse; oral, 100 mg/kg).
`C=C(C)C(=O)Nc1ccc(-c2c(-c3ccc(Oc4nccc(C)n4)cc3)c3c(N)ncnc3n2C)cc1` gave a Vd of 0.36 L/kg (nude mouse; intravenous).
For `COC1C=COC2(C)Oc3c(C)c(O)c4c(c3C2=O)C2=NC3(CCN(CC(C)C)CC3)NC2=C(NC(=O)C(C)=CC=CC(C)C(O)C(C)C(O)C(C)C(OC(=O)c2cccnc2)C1C)C4=O` (stereo not shown), the Vd was 1.8 L/kg (female CD-1 mouse; intravenous, 5 mg/kg).
`Nc1ccn(C[C@@H](CO)OCP(=O)(O)OCCCS(=O)(=O)CCCCCCCCCCC2CCC2)c(=O)n1` gave a Vd of 2.8 L/kg (mouse; intravenous, 3 mg/kg, single dose).
For `CCS(=O)(=O)c1ccccc1C(=O)N1CCN(c2nc3ccc(F)cc3s2)C[C@@H]1C`, the Vd was 3.5 L/kg (mouse; intravenous, 3 mg/kg).
For `Cc1ccc(CNC(=O)Cc2ccc(-c3ccc(OCCN4CCOCC4)cc3)cn2)cc1`, the Vd was 1.89 L/kg (CD-1 mouse; intravenous, 2 mg/kg).
`O=C(OCc1cccc(O)c1O)c1ccc(O)c(CO)c1` has a Vd of 0.343 L/kg (male CD-1 mouse; intravenous, 10 mg/kg).

Repeated from above:
The Vd/F of `O=C1OC2(c3ccccc31)c1cc(I)c(O)c(I)c1Oc1c2cc(I)c(O)c1I` is reported as 504 L/kg (female C57BL/6 mouse; oral, 100 mg/kg).
`C=C(C)C(=O)Nc1ccc(-c2c(-c3ccc(Oc4nccc(C)n4)cc3)c3c(N)ncnc3n2C)cc1` gave a Vd of 0.36 L/kg (nude mouse; intravenous).
